Measured values pooled from the literature.
Each line is one published result; not all experiments were run side by side. ± marks the error that the study gave.
CHRM1: Muscarinic acetylcholine receptor M1 (CHRM1, Homo sapiens, UniProt P11229)
UniProt P11229, sequence (whole entry, looked up): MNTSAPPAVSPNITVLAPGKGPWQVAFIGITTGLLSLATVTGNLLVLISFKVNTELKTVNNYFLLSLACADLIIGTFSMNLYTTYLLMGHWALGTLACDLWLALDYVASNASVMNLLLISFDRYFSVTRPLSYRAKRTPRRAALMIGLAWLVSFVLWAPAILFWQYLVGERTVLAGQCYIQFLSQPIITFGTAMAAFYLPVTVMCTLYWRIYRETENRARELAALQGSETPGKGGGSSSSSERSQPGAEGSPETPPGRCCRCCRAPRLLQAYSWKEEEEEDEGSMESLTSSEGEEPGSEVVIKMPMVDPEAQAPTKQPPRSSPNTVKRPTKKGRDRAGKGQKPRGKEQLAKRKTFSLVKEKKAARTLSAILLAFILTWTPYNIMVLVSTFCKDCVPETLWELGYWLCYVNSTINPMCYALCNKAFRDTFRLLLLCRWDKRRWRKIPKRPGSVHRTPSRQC
CASP3: Caspase-3 (CASP3, Homo sapiens, UniProt P42574)
UniProt P42574, sequence (whole entry, looked up): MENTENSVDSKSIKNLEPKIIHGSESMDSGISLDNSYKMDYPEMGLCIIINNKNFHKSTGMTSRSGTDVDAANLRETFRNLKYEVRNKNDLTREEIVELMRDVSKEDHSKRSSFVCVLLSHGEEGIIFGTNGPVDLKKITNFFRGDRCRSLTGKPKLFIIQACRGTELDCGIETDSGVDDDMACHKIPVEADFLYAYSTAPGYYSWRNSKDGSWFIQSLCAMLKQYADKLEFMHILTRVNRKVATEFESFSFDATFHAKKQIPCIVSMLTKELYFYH
UniProt Q9QXU1, sequence (whole entry, looked up): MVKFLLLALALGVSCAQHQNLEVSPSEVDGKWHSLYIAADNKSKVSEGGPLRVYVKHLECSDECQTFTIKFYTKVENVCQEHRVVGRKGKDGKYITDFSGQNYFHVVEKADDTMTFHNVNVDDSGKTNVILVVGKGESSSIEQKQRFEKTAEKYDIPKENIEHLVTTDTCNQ
UniProt P27338, sequence (whole entry, looked up): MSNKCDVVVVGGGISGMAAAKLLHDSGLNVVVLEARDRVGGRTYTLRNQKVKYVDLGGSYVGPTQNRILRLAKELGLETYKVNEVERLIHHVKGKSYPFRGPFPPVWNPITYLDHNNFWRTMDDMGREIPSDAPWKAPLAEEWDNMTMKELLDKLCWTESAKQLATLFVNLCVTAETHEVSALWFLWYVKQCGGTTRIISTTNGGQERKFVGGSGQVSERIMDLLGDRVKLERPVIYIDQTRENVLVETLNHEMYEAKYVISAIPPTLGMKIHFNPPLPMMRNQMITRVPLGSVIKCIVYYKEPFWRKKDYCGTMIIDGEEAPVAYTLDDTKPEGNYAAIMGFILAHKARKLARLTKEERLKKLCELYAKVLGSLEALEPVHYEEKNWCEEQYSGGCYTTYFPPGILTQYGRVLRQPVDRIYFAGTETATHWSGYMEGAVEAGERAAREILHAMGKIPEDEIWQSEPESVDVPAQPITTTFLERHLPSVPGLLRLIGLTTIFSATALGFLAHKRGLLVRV
UniProt P42229, sequence (whole entry, looked up): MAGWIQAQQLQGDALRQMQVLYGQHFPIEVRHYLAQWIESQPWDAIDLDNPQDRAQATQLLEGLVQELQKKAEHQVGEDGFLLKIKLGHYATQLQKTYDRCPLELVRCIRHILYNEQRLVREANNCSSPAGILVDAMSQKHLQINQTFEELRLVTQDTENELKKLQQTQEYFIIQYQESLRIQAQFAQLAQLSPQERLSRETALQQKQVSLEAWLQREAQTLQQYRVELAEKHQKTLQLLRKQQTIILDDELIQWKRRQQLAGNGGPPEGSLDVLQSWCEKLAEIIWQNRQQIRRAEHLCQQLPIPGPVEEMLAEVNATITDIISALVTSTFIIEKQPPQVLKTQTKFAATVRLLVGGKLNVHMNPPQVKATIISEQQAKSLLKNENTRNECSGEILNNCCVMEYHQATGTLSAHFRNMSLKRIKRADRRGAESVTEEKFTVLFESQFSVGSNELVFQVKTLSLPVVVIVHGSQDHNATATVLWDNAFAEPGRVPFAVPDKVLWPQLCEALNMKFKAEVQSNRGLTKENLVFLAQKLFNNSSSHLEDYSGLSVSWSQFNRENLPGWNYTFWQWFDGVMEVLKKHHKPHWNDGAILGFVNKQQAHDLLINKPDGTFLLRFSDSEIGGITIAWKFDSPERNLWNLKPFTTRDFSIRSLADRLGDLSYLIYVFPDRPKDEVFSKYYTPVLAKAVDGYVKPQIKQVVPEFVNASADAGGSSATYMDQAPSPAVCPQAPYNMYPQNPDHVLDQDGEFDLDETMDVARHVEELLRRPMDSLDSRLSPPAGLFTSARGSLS
UniProt Q27793, sequence (whole entry, looked up): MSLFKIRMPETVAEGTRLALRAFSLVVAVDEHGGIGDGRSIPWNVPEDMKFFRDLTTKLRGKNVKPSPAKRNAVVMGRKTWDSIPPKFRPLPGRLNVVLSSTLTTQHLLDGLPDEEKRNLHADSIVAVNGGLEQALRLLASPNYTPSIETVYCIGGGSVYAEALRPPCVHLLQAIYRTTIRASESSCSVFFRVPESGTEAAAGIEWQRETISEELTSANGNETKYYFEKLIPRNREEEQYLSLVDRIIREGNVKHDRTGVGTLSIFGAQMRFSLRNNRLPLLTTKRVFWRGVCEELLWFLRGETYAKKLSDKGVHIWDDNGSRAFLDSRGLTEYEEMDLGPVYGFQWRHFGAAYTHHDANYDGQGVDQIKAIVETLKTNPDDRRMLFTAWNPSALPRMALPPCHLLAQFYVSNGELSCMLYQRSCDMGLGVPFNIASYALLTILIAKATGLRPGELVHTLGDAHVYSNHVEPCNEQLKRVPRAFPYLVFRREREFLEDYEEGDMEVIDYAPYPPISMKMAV
UniProt P30542, sequence (whole entry, looked up): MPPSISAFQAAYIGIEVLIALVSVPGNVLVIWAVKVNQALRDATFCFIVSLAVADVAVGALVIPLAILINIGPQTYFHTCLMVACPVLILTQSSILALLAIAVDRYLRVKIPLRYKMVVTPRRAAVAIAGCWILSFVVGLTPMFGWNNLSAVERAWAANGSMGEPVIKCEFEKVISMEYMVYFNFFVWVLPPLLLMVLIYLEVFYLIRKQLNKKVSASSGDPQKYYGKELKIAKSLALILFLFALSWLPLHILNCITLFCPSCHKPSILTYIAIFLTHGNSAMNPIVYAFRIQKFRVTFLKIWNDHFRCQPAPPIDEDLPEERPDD
UniProt Q9R0C9, sequence (whole entry, looked up): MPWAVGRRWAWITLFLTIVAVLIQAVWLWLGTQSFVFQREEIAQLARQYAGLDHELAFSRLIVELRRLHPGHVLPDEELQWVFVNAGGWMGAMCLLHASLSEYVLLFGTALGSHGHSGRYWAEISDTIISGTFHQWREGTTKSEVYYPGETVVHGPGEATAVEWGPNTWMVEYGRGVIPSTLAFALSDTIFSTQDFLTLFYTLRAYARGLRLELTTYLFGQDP
UniProt Q12908, sequence (whole entry, looked up): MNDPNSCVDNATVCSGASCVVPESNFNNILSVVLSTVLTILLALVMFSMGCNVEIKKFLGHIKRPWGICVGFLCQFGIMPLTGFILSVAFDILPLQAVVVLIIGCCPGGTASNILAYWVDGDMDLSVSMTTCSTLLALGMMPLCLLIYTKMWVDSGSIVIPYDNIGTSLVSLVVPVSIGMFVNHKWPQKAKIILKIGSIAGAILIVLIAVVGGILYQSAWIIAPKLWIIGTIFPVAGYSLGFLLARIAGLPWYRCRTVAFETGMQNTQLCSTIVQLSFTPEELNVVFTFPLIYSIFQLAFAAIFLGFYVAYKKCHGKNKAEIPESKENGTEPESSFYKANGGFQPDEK
UniProt P10415, sequence (whole entry, looked up): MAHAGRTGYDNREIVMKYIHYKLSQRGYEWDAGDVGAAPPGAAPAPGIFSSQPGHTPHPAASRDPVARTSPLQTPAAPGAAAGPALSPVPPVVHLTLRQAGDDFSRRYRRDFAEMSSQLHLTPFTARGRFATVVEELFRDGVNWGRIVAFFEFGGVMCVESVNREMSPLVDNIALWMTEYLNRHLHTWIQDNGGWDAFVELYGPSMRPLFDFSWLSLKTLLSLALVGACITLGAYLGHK
UniProt P20309, sequence (whole entry, looked up): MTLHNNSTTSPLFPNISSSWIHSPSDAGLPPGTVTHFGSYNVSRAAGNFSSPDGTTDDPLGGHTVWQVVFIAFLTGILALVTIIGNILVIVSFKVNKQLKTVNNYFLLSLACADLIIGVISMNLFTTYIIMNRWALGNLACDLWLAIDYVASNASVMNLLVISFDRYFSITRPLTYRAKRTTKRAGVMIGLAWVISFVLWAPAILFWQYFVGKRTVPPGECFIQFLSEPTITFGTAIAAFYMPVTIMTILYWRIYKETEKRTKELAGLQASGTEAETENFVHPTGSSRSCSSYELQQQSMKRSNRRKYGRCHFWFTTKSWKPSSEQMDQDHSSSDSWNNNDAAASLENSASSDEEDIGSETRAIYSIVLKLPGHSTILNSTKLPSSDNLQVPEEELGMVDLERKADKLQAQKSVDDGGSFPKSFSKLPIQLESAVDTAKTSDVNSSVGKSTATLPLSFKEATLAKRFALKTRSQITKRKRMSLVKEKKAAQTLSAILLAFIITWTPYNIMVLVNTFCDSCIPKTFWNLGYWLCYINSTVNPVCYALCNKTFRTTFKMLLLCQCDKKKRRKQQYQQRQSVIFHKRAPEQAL

| SMILES | target | test | system | setting | Ki [µM] |
| --- | --- | --- | --- | --- | --- |
| CCC(=O)NCc1cc(C(=O)NCCN2CCN(CCCCC3CCN(CC(=O)N4c5ccccc5NC(=O)c5ccccc54)CC3)CC2)cc(C(=O)NCCN2CCN(CCCCC3CCN(CC(=O)N4c5ccccc5NC(=O)c5ccccc54)CC3)CC2)c1 | CHRM1 | ligand displacement, radioligand |  |  | 0.00295 |
| Cc1cccc2c1O[C@@H](c1nc(C(=O)O)cs1)CN2Cc1ccccc1 | Apoptosis regulator Bcl-2 (BCL2, Homo sapiens, UniProt P10415) | ligand displacement, FP |  |  | 93 |
| CC(C)=CCC/C(C)=C/CC/C(=C/COP(=O)(O)OP(=O)(O)O)C(F)(F)F | SC1 (Streptomyces citricolor, UniProt G5EKM9) | inhibitor, radioligand inhibition |  | together with: [3H]FDP | 3.9 ± 0.2 |
| CC[C@H](C)[C@H](NC(C)=O)C(=O)N[C@H](C(=O)N[C@H](C(=O)N[C@@H](CCCCN)C(=O)N[C@H](C=O)CC(=O)O)C(C)C)[C@@H](C)O | CASP3 | enzyme activity, inhibitor, fluorescence |  | pH 7 | 0.891 |
| COc1cccc(-c2c(C#N)c(N)nc(SCc3ncc[nH]3)c2C#N)c1 | Adenosine receptor A1 (ADORA1, Homo sapiens, UniProt P30542) | ligand displacement, radioligand |  | cell membranes | 0.0031 |
| O=C1Nc2ccccc2N(C(=O)CN2CCC(CCCCN3CCN(CCOC(=O)C4c5ccccc5Oc5ccccc54)CC3)CC2)c2ccccc21 | CHRM1 | ligand displacement, radioligand |  |  | 0.00339 |
| O=c1[nH]cnc2c(CNC(CO)COP(=O)(O)O)c[nH]c12 (stereo not shown) | Hypoxanthine-guanine phosphoribosyltransferase (Trypanosoma cruzi, UniProt Q4DGA3) |  |  |  | 1.09 ± 0.26 |
| C/C(=N\OCCN1CCCCC1)c1cccc(C(F)(F)F)c1 | Sigma non-opioid intracellular receptor 1 (Sigmar1, Rattus norvegicus, UniProt Q9R0C9) | binding |  |  | 0.00641 ± 0.0018 |
| NCc1cc(C(=O)NCCN2CCN(CCCCC3CCN(CC(=O)N4c5ccccc5NC(=O)c5ccccc54)CC3)CC2)cc(C(=O)NCCN2CCN(CCOC(=O)C3c4ccccc4Oc4ccccc43)CC2)c1 | CHRM1 | ligand displacement, radioligand |  |  | 0.0038 |
| CCCCOc1ccc(C(=O)OCC[N+]2(C)CC=CCC2)cc1 (stereo not shown) | Muscarinic acetylcholine receptor M3 (CHRM3, Homo sapiens, UniProt P20309) | ligand displacement, radioligand |  | cell membranes | 5.89 |
| CC1(C)NC(N)=Nc2nc3c(Cl)cc(Cl)cc3n21 | Bifunctional dihydrofolate reductase-thymidylate synthase, DHFR domain (Trypanosoma cruzi, UniProt Q27793) | enzyme activity, competitive inhibitor |  | together with: dihydrofolate 60 µM, NADPH 100 µM | 2.29 |
| COc1nccnc1CC(C)C | Male-specific submandibular salivary gland protein (MSP, Mesocricetus auratus, UniProt Q9QXU1) | binding, fluorescence displacement |  | together with: 1-AMA 2 µM | ~0.22 |
| C[C@H](CCC(=O)N[C@@H](CCC(=O)Nc1ccc(F)nc1)C(=O)O)[C@H]1CC[C@H]2[C@@H]3[C@H](O)C[C@@H]4C[C@H](O)CC[C@]4(C)[C@H]3CC[C@]12C | Ileal sodium/bile acid cotransporter (SLC10A2, Homo sapiens, UniProt Q12908) | taurocholate uptake, inhibitor | ASBT-MDCK | 10 min, together with: taurocholate 2.5 µM | 5.74 |
| COc1ccc(CCCN[C@H]2CCC[C@@H]2CN[C@H]2CCC[C@@H]2CNCCCCN[C@H]2CCC[C@@H]2CN)cc1 | Amine oxidase [flavin-containing] B (MAOB, Homo sapiens, UniProt P27338) | enzyme activity, inhibitor |  |  | > 500 |
| CC(=O)NCC(=O)N[C@@H](CCCCN)C(=O)N[C@H](C=O)CC(=O)O | CASP3 | enzyme activity, inhibitor, fluorescence |  | pH 7 | > 100 |
| O=C(NCc1ccc(OP(=O)(O)O)c(OP(=O)(O)O)c1)OCC1c2ccccc2-c2ccccc21 | Signal transducer and activator of transcription 5A, SH2 (Homo sapiens, UniProt P42229) | ligand displacement, FP |  |  | 11 |

Excerpt of the above:
| SMILES | target | test | system | setting | Ki [µM] |
| --- | --- | --- | --- | --- | --- |
| CCC(=O)NCc1cc(C(=O)NCCN2CCN(CCCCC3CCN(CC(=O)N4c5ccccc5NC(=O)c5ccccc54)CC3)CC2)cc(C(=O)NCCN2CCN(CCCCC3CCN(CC(=O)N4c5ccccc5NC(=O)c5ccccc54)CC3)CC2)c1 | CHRM1 | ligand displacement, radioligand |  |  | 0.00295 |
